Measurements pooled from the literature.
Each line is one published result; not all experiments were run side by side. ± marks the error that the study gave.
Substance-P receptor: Substance-P receptor (Cavia porcellus, UniProt P30547)
Chain of UniProt P30547 (whole entry, looked up): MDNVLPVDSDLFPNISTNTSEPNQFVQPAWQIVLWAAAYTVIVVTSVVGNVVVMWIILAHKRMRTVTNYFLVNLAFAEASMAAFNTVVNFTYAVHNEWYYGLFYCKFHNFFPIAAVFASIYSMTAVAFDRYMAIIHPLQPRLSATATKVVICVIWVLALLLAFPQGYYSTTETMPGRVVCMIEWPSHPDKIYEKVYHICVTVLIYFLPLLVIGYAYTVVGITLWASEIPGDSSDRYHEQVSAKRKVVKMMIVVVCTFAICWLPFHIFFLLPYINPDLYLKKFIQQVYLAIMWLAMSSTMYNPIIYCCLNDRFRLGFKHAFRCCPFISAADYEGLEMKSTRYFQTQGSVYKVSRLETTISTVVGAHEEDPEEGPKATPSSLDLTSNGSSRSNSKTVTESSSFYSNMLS
gpmI: 2,3-bisphosphoglycerate-independent phosphoglycerate mutase (gpmI, Mycoplasma pneumoniae, UniProt P75167)
Melanocortin receptor 3: Melanocortin receptor 3 (Mus musculus, UniProt P33033)
Chain of UniProt P33033 (whole entry, looked up): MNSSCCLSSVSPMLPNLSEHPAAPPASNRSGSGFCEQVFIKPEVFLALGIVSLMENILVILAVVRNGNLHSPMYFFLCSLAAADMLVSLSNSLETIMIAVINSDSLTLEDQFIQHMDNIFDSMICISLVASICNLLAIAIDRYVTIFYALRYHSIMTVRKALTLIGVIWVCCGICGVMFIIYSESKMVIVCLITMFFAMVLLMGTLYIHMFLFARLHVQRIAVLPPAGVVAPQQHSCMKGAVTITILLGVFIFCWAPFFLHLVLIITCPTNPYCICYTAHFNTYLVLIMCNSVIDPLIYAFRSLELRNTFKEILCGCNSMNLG
Chain of UniProt P29320 (whole entry, looked up): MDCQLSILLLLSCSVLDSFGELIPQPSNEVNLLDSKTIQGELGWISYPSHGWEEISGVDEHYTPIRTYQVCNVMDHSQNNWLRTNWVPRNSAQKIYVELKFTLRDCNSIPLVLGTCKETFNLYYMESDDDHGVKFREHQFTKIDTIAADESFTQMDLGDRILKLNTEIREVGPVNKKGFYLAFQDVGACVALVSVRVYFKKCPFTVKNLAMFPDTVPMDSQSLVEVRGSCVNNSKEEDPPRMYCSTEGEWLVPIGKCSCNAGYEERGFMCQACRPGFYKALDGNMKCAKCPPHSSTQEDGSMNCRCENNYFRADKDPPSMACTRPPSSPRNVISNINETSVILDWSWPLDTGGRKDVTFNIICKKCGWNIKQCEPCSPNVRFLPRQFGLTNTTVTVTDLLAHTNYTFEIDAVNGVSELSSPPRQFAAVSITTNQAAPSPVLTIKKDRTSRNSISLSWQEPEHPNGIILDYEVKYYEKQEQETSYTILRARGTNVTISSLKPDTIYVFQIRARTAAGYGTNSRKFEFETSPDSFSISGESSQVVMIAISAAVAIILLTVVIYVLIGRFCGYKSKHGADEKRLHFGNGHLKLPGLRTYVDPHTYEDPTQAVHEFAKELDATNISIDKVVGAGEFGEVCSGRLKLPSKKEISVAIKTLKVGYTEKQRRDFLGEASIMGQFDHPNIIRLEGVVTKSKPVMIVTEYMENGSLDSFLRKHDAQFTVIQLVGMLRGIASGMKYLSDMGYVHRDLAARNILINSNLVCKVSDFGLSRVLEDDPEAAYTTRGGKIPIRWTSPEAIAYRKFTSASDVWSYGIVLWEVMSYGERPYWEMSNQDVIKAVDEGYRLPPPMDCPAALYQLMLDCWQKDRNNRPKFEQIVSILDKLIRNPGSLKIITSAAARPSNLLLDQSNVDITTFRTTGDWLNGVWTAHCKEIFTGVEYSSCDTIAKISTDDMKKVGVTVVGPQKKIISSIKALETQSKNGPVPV
Chain of UniProt P35222 (whole entry, looked up): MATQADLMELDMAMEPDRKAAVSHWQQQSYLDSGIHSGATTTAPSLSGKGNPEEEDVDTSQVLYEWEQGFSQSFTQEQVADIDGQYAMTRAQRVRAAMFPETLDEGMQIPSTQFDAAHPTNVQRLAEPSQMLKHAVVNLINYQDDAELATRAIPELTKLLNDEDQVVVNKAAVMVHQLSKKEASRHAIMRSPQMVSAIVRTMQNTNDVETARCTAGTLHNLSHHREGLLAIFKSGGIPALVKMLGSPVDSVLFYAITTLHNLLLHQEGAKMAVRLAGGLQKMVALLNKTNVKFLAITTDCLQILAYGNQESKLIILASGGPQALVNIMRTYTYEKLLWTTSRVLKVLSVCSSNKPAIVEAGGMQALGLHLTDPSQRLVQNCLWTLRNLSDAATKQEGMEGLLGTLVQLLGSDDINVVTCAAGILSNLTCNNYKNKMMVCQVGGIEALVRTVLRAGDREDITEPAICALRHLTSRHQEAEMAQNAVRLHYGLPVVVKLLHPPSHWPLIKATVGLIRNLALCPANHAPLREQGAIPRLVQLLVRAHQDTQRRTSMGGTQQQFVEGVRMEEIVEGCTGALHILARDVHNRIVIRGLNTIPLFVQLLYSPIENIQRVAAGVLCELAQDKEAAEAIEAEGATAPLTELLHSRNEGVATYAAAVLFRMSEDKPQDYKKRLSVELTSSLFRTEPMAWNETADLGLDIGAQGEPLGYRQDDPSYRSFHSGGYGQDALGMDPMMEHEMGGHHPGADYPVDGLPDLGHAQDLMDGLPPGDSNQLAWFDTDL

With `Cc1cc(O)cc(C)c1C[C@H](N)C(=O)N[C@H](C)C(=O)NCC(=O)N[C@@H](Cc1ccc(Br)cc1)C(=O)N1CCC[C@H]1C(=O)N[C@@H](CC(C)C)C(=O)N[C@@H](Cc1c[nH]c2ccccc12)C(=O)NCc1cc(C(F)(F)F)cc(C(F)(F)F)c1` the Kb was 23 ± 8.9 nM (Substance-P receptor; antagonist; guinea pig ileum LMMP).
`CS(=O)(=O)c1cccc(OCCCC(=O)NC2CC3CC3C2O)c1` (stereo not shown) gave an EC50 of > 100000 nM (Transcriptional activator protein LasR (lasR, Pseudomonas aeruginosa, UniProt P25084, Y93F); reporter gene, agonist; Escherichia coli lasB-lux reporter).
`CN1C(=O)[C@H](CCC(=O)O)NC(=O)[C@H](Cc2ccc(O)cc2)NC(=O)[C@H](CCCNC(=N)N)NC(=O)[C@@H](Cc2ccc(O)cc2)NC(=O)CSC[C@@H](C(N)=O)NC(=O)[C@H](CCCCN)NC(=O)[C@@H]2CCCN2C(=O)[C@H](CS)NC(=O)[C@H](CCC(=O)O)NC(=O)[C@H](Cc2ccc(O)cc2)N(C)C(=O)[C@H](CCCCN)NC(=O)[C@H](Cc2ccc(O)cc2)NC(=O)[C@@H]1Cc1ccc(O)cc1` has an AC50 of 1410 nM (gpmI; biochemical).
`CC(=O)N[C@@H](CCCNC(=N)N)C(=O)N[C@@H](CCCNC(=N)N)C(=O)N[C@@H](C(=O)N1Cc2ccccc2C[C@H]1C(N)=O)[C@@H](c1ccccc1)c1c[nH]c2ccccc12` has an EC50 of 800 nM (Melanocortin receptor 3; cAMP, agonist, AlphaScreen).
`CNC(=O)C1CCN(c2ccccc2NC(=O)c2ccc(-c3cc(O)ccc3C)c(C)n2)CC1` has a Ki of 2.1 nM (Ephrin type-A receptor 3 (EPHA3, Homo sapiens, UniProt P29320); cell-free assay, TR-FRET).
`CC[C@H](C)[C@H](NC(=O)[C@H](CO)NC(=O)[C@H](CCCNC(=N)N)NC(=O)[C@@H]1CCCN1C(=O)[C@H](Cc1c[nH]c2ccccc12)NC(=O)[C@H](CCCNC(=N)N)NC(=O)[C@H](CCCNC(=N)N)NC(C)=O)C(=O)N[C@@H](CC(C)C)C(=O)N[C@@H](CC(=O)O)C(=O)N[C@@H](CCC(=O)O)C(=O)N[C@@H](Cc1c[nH]cn1)C(=O)N[C@H](C(=O)N[C@@H](CCCNC(=N)N)C(=O)N[C@@H](CCCNC(=N)N)C(=O)N[C@H](C(=O)N[C@@H](Cc1c[nH]c2ccccc12)C(=O)N[C@@H](CCCNC(=N)N)C(=O)NCCCCCC(=O)N[C@@H](C)C(=O)N[C@@H](CC(C)C)C(=O)N[C@@H](C)C(=O)N1CCC[C@H]1C(=O)N[C@@H](Cc1ccc(O)cc1)C(=O)N[C@H](C(=O)N1CCC[C@H]1C(=O)N[C@@H](Cc1ccc(O)cc1)C(=O)NCC(=O)N[C@@H](CCCNC(=N)N)C(=O)N[C@@H](CCCCN)C(=O)N[C@@H](CCCCN)C(=O)N[C@@H](CCCNC(=N)N)C(=O)N[C@@H](CCCNC(=N)N)C(=O)N[C@@H](CCC(N)=O)C(=O)N[C@@H](CCCNC(=N)N)C(=O)N[C@@H](CCCNC(=N)N)C(=O)N[C@@H](CCCNC(=N)N)C(N)=O)[C@@H](C)CC)C(C)C)C(C)C` has a Kd of 7.27 µM (Catenin beta-1 (CTNNB1, Homo sapiens, UniProt P35222); binding, MST).
For `CCCC[C@H]1C(=O)N2CCC[C@H]2C(=O)N[C@H](C(N)=O)CSCC(=O)N[C@@H](Cc2ccc(O)cc2)C(=O)N(C)[C@@H](Cc2ccc(OC)cc2)C(=O)N[C@@H](CCCNC(=N)N)C(=O)N(C)[C@@H](Cc2ccccc2)C(=O)N[C@@H](CC(=O)O)C(=O)N(C)[C@@H](CO)C(=O)N(C)[C@@H](Cc2ccc(O)cc2)C(=O)N[C@@H](CCC(N)=O)C(=O)N[C@@H](CO)C(=O)N(C)[C@@H](CO)C(=O)N(C)[C@@H](Cc2ccc(OC)cc2)C(=O)N[C@@H](C(C)C)C(=O)N(C)[C@@H](Cc2ccc(O)cc2)C(=O)N1C`, the AC50 was 1450 nM (gpmI; biochemical).
With `CC(=O)N[C@@H](CCCNC(=N)N)C(=O)N[C@@H](CCCNC(=N)N)C(=O)N[C@H](Cc1ccc(I)cc1)C(=O)N[C@H](C(N)=O)[C@H](c1ccccc1)c1c[nH]c2ccccc12` the EC50 was 570 nM (Melanocortin receptor 3; cAMP, agonist, AlphaScreen).
`Cl.Cl.Cl.Cl.Cl.Cl.Cl.Cl.Cl.Cl.Cl.Cl.NC[C@@H]1O[C@H](O[C@H]2[C@@H](O)[C@H](O[C@@H]3[C@@H](O)[C@H](N)C[C@H](N)[C@H]3O[C@H]3O[C@H](CN)[C@@H](O)[C@H](O)[C@H]3N)O[C@@H]2Cn2cc(CCCCCCc3cn(C[C@H]4O[C@@H](O[C@@H]5[C@@H](O)[C@H](N)C[C@H](N)[C@H]5O[C@H]5O[C@H](CN)[C@@H](O)[C@H](O)[C@H]5N)[C@H](O)[C@@H]4O[C@H]4O[C@@H](CN)[C@@H](O)[C@H](O)[C@H]4N)nn3)nn2)[C@H](N)[C@@H](O)[C@@H]1O` gave a binding constant of 6.6e+07 M⁻¹ (HIV-1 TAR RNA; RNA binding, ethidium bromide displacement; pH 6.8, TAR RNA 200 nM per strand, added: ethidium bromide 5 µM).
`COc1ccc(C[C@H]2C(=O)N(C)[C@@H](Cc3ccc(O)cc3)C(=O)N(C)[C@@H](Cc3ccccc3)C(=O)N[C@@H](CC(N)=O)C(=O)NCC(=O)N(C)[C@@H](Cc3ccc(O)cc3)C(=O)N[C@@H](CC(N)=O)C(=O)N[C@@H](Cc3c[nH]cn3)C(=O)N[C@@H](Cc3ccc(O)cc3)C(=O)N[C@@H](Cc3c[nH]c4ccccc34)C(=O)N[C@H](C(N)=O)CSCC(=O)N[C@H](Cc3ccc(O)cc3)C(=O)N[C@@H](CC(=O)O)C(=O)N[C@@H](CO)C(=O)N[C@@H](Cc3ccc(O)cc3)C(=O)N[C@@H](C)C(=O)N2C)cc1` has an AC50 of 1200 nM (gpmI; biochemical).
For `CC(C)C[C@H](NC(=O)[C@@H]1CCCN1C(=O)[C@H](CO[C@@H]1O[C@H](CO)[C@@H](O)[C@H](O)[C@H]1O)NC(=O)[C@H](Cc1ccccc1)NC(=O)CNC(=O)[C@@H](C)NC(=O)[C@@H](N)Cc1ccc(O)cc1)C(=O)N[C@@H](Cc1c[nH]c2ccccc12)C(=O)NCc1cc(C(F)(F)F)cc(C(F)(F)F)c1`, the Kb was 2.8 nM (Substance-P receptor; tissue contraction, antagonist).
The AC50 of `COc1ccc(C[C@H]2C(=O)N[C@@H](CC(N)=O)C(=O)N[C@@H](CC(=O)O)C(=O)N[C@@H](CO)C(=O)NCC(=O)N[C@@H](Cc3c[nH]c4ccccc34)C(=O)N(C)[C@@H](Cc3ccc(O)cc3)C(=O)N[C@@H](CC(N)=O)C(=O)N[C@@H]([C@@H](C)O)C(=O)N(C)[C@@H](Cc3ccccc3)C(=O)N[C@H](C(N)=O)CSCC(=O)N[C@@H](Cc3ccc(O)cc3)C(=O)N2C)cc1` is reported as 45700 nM (2,3-bisphosphoglycerate-independent phosphoglycerate mutase (Wuchereria bancrofti, UniProt B1P0R4); biochemical).
The Kb of `CCCC[C@H](NC(=O)[C@H](Cc1ccccc1)NC(=O)CNC(=O)[C@@H](C)NC(=O)[C@@H](N)Cc1ccc(O)cc1)C(=O)N1CCC[C@H]1C(=O)N[C@@H](CC(C)C)C(=O)N[C@@H](CO[C@@H]1O[C@H](CO)[C@@H](O)[C@H](O)[C@H]1O)C(=O)N[C@@H](Cc1c[nH]c2ccccc12)C(=O)NCc1cc(C(F)(F)F)cc(C(F)(F)F)c1` is reported as 8.4 nM (Substance-P receptor; tissue contraction, antagonist).
